Measured values gathered from unrelated publications.
Lines come from different studies, so protocols differ. ± marks the error that the study gave.

For `CC[C@H](C)[C@H](NC(=O)[C@H](Cc1ccccc1)NC(=O)[C@H](CCN)NC(=O)[C@H](CCCNC(=N)N)NC(=O)[C@H](Cc1ccccc1)NC(=O)[C@H](Cc1ccccc1)NC(=O)[C@H](CCCCN)NC(=O)[C@H](CO)NC(=O)[C@H](CC(C)C)NC(=O)[C@H](CCCNC(=N)N)NC(=O)[C@H](CCSC)NC(=O)[C@H](C)N)C(=O)N[C@@H](CC(C)C)C(=O)N[C@@H](CCCN)C(=O)N[C@@H](CCCNC(=N)N)C(=O)N[C@@H](CCCCN)C(=O)N[C@@H](CCCCN)C(=O)O`, the helicity was 23.6% (circular dichroism; 20% TFE in PBS; 200 µM, pH 7.4, 25 °C).
The MRT of `O=C1C2=C(CCN(Cc3ccccc3)C2)N2CCN=C2N1Cc1ccc(C(F)(F)F)cc1` is reported as 3.26 h (female CD-1 mouse, plasma; oral, 50 mg/kg).
Under “fluorescence quantum yield”, `CCCCN1C(=O)c2cccc3c(NCCCCCCCCN4CCOCC4)ccc(c23)C1=O` is recorded as 0.23 (water; pH 6; relative to: fluorescein/0.1 N NaOH).
The exposure ratio of `CC(=O)N[C@H](C)c1cc(Cl)ccc1Cn1c(=S)[nH]c(=O)c2[nH]ccc21` is reported as 0.4 (dog, both sexes, plasma; oral, 100 mg/kg/day; relative to: dog over human 15 mg).
Under “peak potential separation”, `NC(=S)N/N=C/c1ccccn1` is recorded as 0.137 mV (cyclic voltammetry; anhydrous DMF; Cu2+ complex, glassy carbon electrode).
For `N=C(N)NCCC[C@@H]1NC(=O)[C@H](Cc2c[nH]c3ccccc23)NC(=O)[C@@H](CC2CCCCC2)NC(=O)[C@@H]2CCCN2C(=O)[C@@H](NC(=O)CCc2ccccc2)CCCNC1=O`, the MRT(0-last) was 0.65 h (C57BL/6J mouse, plasma spinal cord; intraperitoneal, 1 mg/kg single dose).
With `O=c1c(-c2ccccc2)c[nH]n1-c1ccccn1` the chromatographic logD was 2.7 (HPLC; pH 7.5).
`Cn1c(=O)oc2ccc(-c3ccc(CC(C#N)NC(=O)C4CNCCCO4)c(F)c3)cc21` (stereo not shown) — result for “AST increased incidence”: 11.1% (human; oral, 40 mg once daily, TEAE, multiple ascending dose).
`COCC1CN(C2CCN(c3cc(OC)c(Nc4ncc(Br)c(Nc5ccc6c(c5P(C)(C)=O)OCCO6)n4)cc3C)CC2)C1` — result for “accumulation ratio of AUC”: 2.1 to 4.7 (human, plasma; oral, 10 to 150 mg multiple doses, 21 days).
With `NC(=O)c1cccnc1.O.O=c1[nH]cc(F)c(=O)[nH]1.O=c1[nH]cc(F)c(=O)[nH]1.O=c1[nH]cc(F)c(=O)[nH]1` the alpha half-life was 0.197 ± 0.05 h (Sprague-Dawley rat; oral, 0.06 mmol/kg).
For `CC(C)c1cnc(-c2cc(Cl)ccc2F)cc1Nc1ccncc1C(=O)NC(CO)CO`, “patients with related SAE” read 2.4% (item: pyrexia; human patients; oral, dose not given, grade 2).
With `CC[C@@H](C)[C@H]1NC(=O)[C@@H]([C@H](C)O)NC(=O)[C@@H](Cc2c[nH]cn2)NC(=O)CNC(=O)[C@@H](CCCNC(=N)N)NC(=O)CNC(=O)[C@@H](Cc2ccccc2)NC1=O` the retina-choroid concentration was roughly 464 nM (New Zealand rabbit, retina-choroid; eye drop, dose not given, 24 h).
`CCC(=O)N[C@@H](C)C(=O)OCC(=O)N[C@@H](C)C(=O)O` gave a depolymerization half-life of 826 h (water; pH 4, 37 °C).
The measured concentration of `Oc1ccc2ccccc2c1/N=N/c1ccc(/N=N/c2ccccc2)cc1` is reported as 0.203 µg/L (extracted rat blood QC samples; 0.2 µg/L, 4 h, room temperature, short-term stability).
`CC(C)(Sc1ccncc1-c1ccc(C#N)c2ccccc12)C(=O)OC1OC(C(=O)O)C(O)C(O)C1O` (stereo not shown) has a Cmax ratio of 129% (adult men, plasma; oral, 15 mg verinurad, mild renal impairment; relative to: impaired over normal renal function).
For `CC(C)(O)c1ncc([S@](N)(=O)=NC(=O)Nc2c3c(cc4c2CCC4)CCC3)s1`, the Tmax was 3 h (healthy human volunteers, plasma; oral, 100 mg once daily, day 1, spray-dried dispersion).
For `COc1ccc2cc(-c3ccc(-c4ccc(C)cn4)nc3)oc2c1`, the fluorescence lifetime was 1.84 ns (TCSPC; MeCN).
`COCCOCCOCCOCCOCCOCCOCCOCCC(=O)NCCCc1cc2cc3nc(cc4[nH]c(cc5nc(c(OC)c1[nH]2)C(=O)C5(C)C)cc4CCc1ccc(C(=O)O)cc1)CC3(C)C` — result for “integrated Qy/B absorption ratio”: 0.23 (DMF; room temperature).
For `COc1ccc(S(=O)(=O)N2CCc3ccccc3C2)cc1N1CCN(C(=O)c2ccc(F)cc2C(F)(F)F)CC1`, the concentration was 80.6 ng/g (rat, brain; intravenous, 10 mg/kg, 1 h, single dose).
For `COc1cc(C2CCC(c3[nH]c(=O)[nH]c(=O)c3Cc3cccc(C(F)(F)F)c3)CC2)ccc1O` (stereo not shown), “share of plasma radioactivity” read no less than 10% (14C label; cynomolgus monkey; oral, 80 mg/kg).
`CC(C)[C@H](NC(=O)CNC(=O)[C@H](CCC(N)=O)NC(=O)[C@H](C)N)C(=O)O` gave an AUC(0-inf) of 560 ng·h/mL (LC-MS/MS; human, plasma; intravenous, 30 mg/kg three times daily, day 2, first dose, 10 min infusion, geometric mean).
`Cc1ccccc1-c1cc(N2CC[N+](C)([O-])CC2)ncc1N(C)C(=O)C(C)(C)c1cc(C(F)(F)F)cc(C(F)(F)F)c1` has an AUC(0-inf) of 3060 to 8530 ng·h/mL (cancer patients, plasma; oral, dose not given, netupitant-palonosetron single dose, range of means).
For `CC1(C)C(=CC=C(C=CC2=[N+](CCC[N+](C)(C)C)c3ccc(S(=O)(=O)[O-])cc3C2(C)C)Oc2ccc(CCC(=O)[O-])cc2)N(CCC[N+](C)(C)C)c2ccc(S(=O)(=O)[O-])cc21`, the absorbance maximum was 653 nm (100% serum; pH 7.4).
`CN(C)c1cc(CN2CCCCC2)c(O)c2c1C[C@H]1C[C@H]3[C@H](N(C)C)C(O)=C(C(N)=O)C(=O)[C@@]3(O)C(O)=C1C2=O` gave a t1/2 of 4.7 h (cynomolgus monkey, plasma; oral, 5 mg/kg).
For `CC[C@H](C)[C@H](NC(=O)[C@@H]1CCCN1C(=O)CNC(=O)[C@H](Cc1ccccc1)NC(=O)[C@H](CC(N)=O)NC(=O)[C@H](CC(N)=O)NC(=O)[C@H](CO)NC(=O)[C@H](CO)NC(=O)[C@H](Cc1c[nH]cn1)NC(=O)[C@@H](NC(=O)[C@H](CC(C)C)NC(=O)[C@H](Cc1ccccc1)NC(=O)[C@H](CC(N)=O)NC(=O)[C@H](C)NC(=O)[C@H](CC(C)C)NC(=O)[C@H](CCCNC(=N)N)NC(=O)[C@H](CCC(N)=O)NC(=O)[C@@H](NC(=O)[C@H](C)NC(=O)[C@@H]1CSSC[C@H](NC(=O)[C@@H](N)CCCCN)C(=O)N[C@@H](CC(N)=O)C(=O)N[C@@H]([C@@H](C)O)C(=O)N[C@@H](C)C(=O)N[C@@H]([C@@H](C)O)C(=O)N1)[C@@H](C)O)C(C)C)C(=O)N[C@@H](CC(C)C)C(=O)N[C@@H](CO)C(=O)N1CCC[C@H]1C(=O)N[C@H](C(=O)N[C@@H](CC(N)=O)C(=O)N[C@H](C(=O)NCC(=O)N[C@@H](CO)C(=O)N[C@@H](CC(N)=O)C(=O)N[C@H](C(=O)N[C@@H](Cc1ccc(O)cc1)C(N)=O)[C@@H](C)O)C(C)C)[C@@H](C)O`, “half-time of amyloid formation” read 16.2 ± 1 h (thioflavin T fluorescence; phosphate buffer; 16 µM, pH 7.4, 25 °C).
For `Cc1cc(O)cc(O)c1C(=O)c1c2c3c(c(O)cc(C)c3oc1=O)C(=O)c1c(O)cc(O)cc1-2`, the elimination half-life was 0.793 h (KM mouse, male, plasma; intraperitoneal, 30 mg/kg).
`CC[C@H](C)[C@H](NC(=O)[C@H](Cc1ccccc1)NC(=O)[C@H](CCCN)NC(=O)[C@H](CCCNC(=N)N)NC(=O)[C@H](Cc1ccccc1)NC(=O)[C@H](Cc1ccccc1)NC(=O)[C@H](CCCCN)NC(=O)[C@H](CO)NC(=O)[C@H](CC(C)C)NC(=O)[C@H](CCCNC(=N)N)NC(=O)[C@H](CCSC)NC(=O)[C@H](C)N)C(=O)N[C@@H](CC(C)C)C(=O)N[C@@H](CN)C(=O)N[C@@H](CCCNC(=N)N)C(=O)N[C@@H](CCCCN)C(=O)N[C@@H](CCCCN)C(=O)O` gave a helicity of 12.8% (circular dichroism; 20% TFE in PBS; 200 µM, pH 7.4, 25 °C).
`CSc1cc(C)nc(SC)c1NC(=O)CN1CCN(CCSc2nc3ccccc3[nH]2)CC1.Cl` has a tissue concentration of 0 ng/g (female Crl:CD1 (ICR) mice, olfactory bulb; intranasal, 10 µL solution daily, 120 min, 7 days dosing).

Repeated from above:
The MRT of `O=C1C2=C(CCN(Cc3ccccc3)C2)N2CCN=C2N1Cc1ccc(C(F)(F)F)cc1` is reported as 3.26 h (female CD-1 mouse, plasma; oral, 50 mg/kg).
Under “fluorescence quantum yield”, `CCCCN1C(=O)c2cccc3c(NCCCCCCCCN4CCOCC4)ccc(c23)C1=O` is recorded as 0.23 (water; pH 6; relative to: fluorescein/0.1 N NaOH).
The exposure ratio of `CC(=O)N[C@H](C)c1cc(Cl)ccc1Cn1c(=S)[nH]c(=O)c2[nH]ccc21` is reported as 0.4 (dog, both sexes, plasma; oral, 100 mg/kg/day; relative to: dog over human 15 mg).
Under “peak potential separation”, `NC(=S)N/N=C/c1ccccn1` is recorded as 0.137 mV (cyclic voltammetry; anhydrous DMF; Cu2+ complex, glassy carbon electrode).
For `N=C(N)NCCC[C@@H]1NC(=O)[C@H](Cc2c[nH]c3ccccc23)NC(=O)[C@@H](CC2CCCCC2)NC(=O)[C@@H]2CCCN2C(=O)[C@@H](NC(=O)CCc2ccccc2)CCCNC1=O`, the MRT(0-last) was 0.65 h (C57BL/6J mouse, plasma spinal cord; intraperitoneal, 1 mg/kg single dose).
